Published values collected from several papers.
Each numbered part is a random draw from the data of one study; scales do not carry over between parts. Changes are numbered by the printed parent chain.

Set 1 — technique: protein-binding microarray; form: double-stranded DNA, one strand shown; sample: in vitro; tested at: 250 nM; setting: 60-bp whole probe; with: salmon DNA 0.4 mg/ml; baseline: random background probes; reading: higher = stronger binding; all sequences stand within: GCCTAGCAC … GTCTTGATTCGCTTGACGCTGCTG
Target: Interferon regulatory factor 7, full length, phosphomimetic (IRF7, Homo sapiens, UniProt Q92985, residues 1-503, S101K/S471D/S472D/S475D/S476D/S477D/S483D/S484D/S487D)
Chain of UniProt Q92985 (whole entry, unmodified, looked up): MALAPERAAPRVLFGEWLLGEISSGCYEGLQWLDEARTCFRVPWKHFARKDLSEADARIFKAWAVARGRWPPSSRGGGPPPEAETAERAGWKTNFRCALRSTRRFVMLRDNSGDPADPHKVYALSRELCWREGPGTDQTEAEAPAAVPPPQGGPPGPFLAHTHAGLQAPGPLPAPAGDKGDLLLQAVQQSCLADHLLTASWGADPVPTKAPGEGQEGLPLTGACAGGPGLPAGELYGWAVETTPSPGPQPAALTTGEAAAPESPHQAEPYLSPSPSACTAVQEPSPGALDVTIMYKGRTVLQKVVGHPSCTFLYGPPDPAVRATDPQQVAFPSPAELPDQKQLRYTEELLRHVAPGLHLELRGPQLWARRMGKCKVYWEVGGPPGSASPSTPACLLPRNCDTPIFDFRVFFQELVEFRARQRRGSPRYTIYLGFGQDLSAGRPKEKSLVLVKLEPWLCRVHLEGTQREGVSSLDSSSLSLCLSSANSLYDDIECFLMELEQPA
| Oligonucleotide | log fluorescence |
| --- | --- |
| TTAGGACTGGACTATCGGTTTGTGCTA | 0.0321 z-score |
| CTCACCTCAGCCTCCCAAGTGTGCTAG | 0.324 z-score |
| TACTAGAGTAAAACCCTGGCGTGCTAG | -0.0548 z-score |
| GACGGTATCCTACTGTTGACGTGCTAG | -0.0263 z-score |
| GACGGTGTCGGTTTCGGGACGTGCTAG | 2.62 z-score |
| GACGATATAGGGACTGGAGACGTGCTA | -0.331 z-score |
| GACGGTCTGGGGTATCGGGACGTGCTA | -0.461 z-score |
| TTAGGTTTCGGTTCCGGTAAGTGCTAG | 12.8 z-score |
| TTAGATATCAGTATCCATTAGTGCTAG | 0.0893 z-score |
| TTAGGTATCGGGACTGGGTAAGTGCTA | 0.0631 z-score |
| TTCGATTTCAGACTGGATTAGTGCTAG | 0.619 z-score |
| GACGGTATCGGTCTCGTGACGTGCTAG | 0.457 z-score |
| GACGAACTGAGTTCCGAGACGTGCTAG | 0.206 z-score |
| TTTGGTTTCGGTCTCGGTTAGTGCTAG | 9.64 z-score |
| TTAGAACTAAGTTTCGATTAGTGCTAG | 8.94 z-score |
| ACCCATCTCCAGTAGCCTAGCGTGCTA | 0.234 z-score |
| GACGGTTTAGACTATCGGGACGTGCTA | 0.101 z-score |
| GACGGTCACGGTTTCGGGACGTGCTAG | 4.04 z-score |

Set 2 — technique: RNA Bind-n-Seq; form: RNA; sample: in vitro; tested at: 200 nM; setting: whole 134-nt RNA, ends assumed; with: 150 mM KCl; baseline: input library; reading: higher = stronger binding
Target: Fragile X messenger ribonucleoprotein 1, C-terminal low-complexity region (Fmr1, Mus musculus, UniProt P35922)
| Oligonucleotide | log2 enrichment |
| --- | --- |
| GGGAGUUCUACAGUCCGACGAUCGUCCUGUGCUACACAUCGUAUGUACCGAAUCGGGGUUUUUGGGGUUUUUGGGGUGGGGAAAGUAUUAUGUUACGCCGUUCGGAUCUGCACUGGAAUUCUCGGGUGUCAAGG | 0.911 |
| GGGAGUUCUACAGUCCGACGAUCCACAGACAACACGCACCCACACAGACACAGAGGGAAGGGGUUGGGAUGGGGACAGGGUGUACAGCAGGGCGGGGUAGGACCCCAGCCCCUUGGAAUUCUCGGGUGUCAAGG | 1.26 |
| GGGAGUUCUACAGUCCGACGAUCAGUCCUGUGCUACACAUCGUAUGUACCGAAUCGGGUUUUGGGUUUUGGGUUUUGGGGAAAGUAUUAUGUUACGCCGUUCGGAUCUGCACUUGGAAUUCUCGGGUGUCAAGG | 0.981 |
| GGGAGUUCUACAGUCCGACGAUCGUCCUGUGCUACACAUCGUAUGUACCGAAUCGGGGCCCCCCGGCCCCCCGGCCCCCCGGAAAGUAUUAUGUUACGCCGUUCGGAUCUGCAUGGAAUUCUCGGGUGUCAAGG | -0.221 |
| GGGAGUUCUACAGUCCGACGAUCUCUAUUCAUAAGAACCCCAACACAUCGGAGCCCCAACACCUGUUGGUGAUGAAGGGCGCCCCAGAAAGGAUCCUAGACCGUUGCAGCUCUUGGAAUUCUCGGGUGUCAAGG | -0.303 |
| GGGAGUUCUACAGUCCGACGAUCCAAGUCCUGUGCUACACAUCGUAUGUACCGAAUCGGGAAAGGGAAAGGAAAGGGGAAAGUAUUAUGUUACGCCGUUCGGAUCUGCACUUCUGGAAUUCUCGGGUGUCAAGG | 0.28 |
| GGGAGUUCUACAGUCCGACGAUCCCUGUGCUACACAUCGUAUGUACCGAAUCAAACCCCCCCAAACCCCCAAACCCCCCCAAAAAAGUAUUAUGUUACGCCGUUCGGAUCUGCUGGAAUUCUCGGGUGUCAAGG | 0.688 |
| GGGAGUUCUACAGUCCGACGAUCGUCCUGUGCUACACAUCGUAUGUACCGAAUCGGGAAAAAGGGAAAAAGGGUUUUUGGGAAAGUAUUAUGUUACGCCGUUCGGAUCUGCACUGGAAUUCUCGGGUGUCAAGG | -0.508 |
| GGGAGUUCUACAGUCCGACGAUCCAAGUCCUGUGCUACACAUCGUAUGUACCGAAUCGGUUUUGGGUUUUGGUUUUGGGAAAGUAUUAUGUUACGCCGUUCGGAUCUGCACUUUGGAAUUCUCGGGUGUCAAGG | -0.696 |

Set 3 — target: CCND3, cyclin fold, Cln2 fusion (human); technique: yeast growth competition, sequencing; sample: yeast; setting: weak parent motif; baseline: not given; reading: higher = stronger binding
Parent: SLBP docking peptide (human); ARYKRKLLINDFG
| Variant | normalised enrichment score |
| --- | --- |
| N10I | 0.147 |
| K6W | 0.21 |
| Y3N | 0.138 |
| A1N | 0.219 |
| R2H | 0.126 |
| F12I | 0.202 |
| G13Y | 0.172 |
| I9D | 0.0699 |
| L8S | 0.0861 |
| I9A | 0.143 |
| Y3H | 0.159 |
| D11V | 0.165 |

Set 4 — technique: Sort-seq; refers to: YFP reporter; sample: E. coli; setting: PhoQ-PhoP variant library; with: 10 µM Mg2+; baseline: high Mg2+ state; reading: higher = stronger signaling
Substance: PhoQ, residues 284 288 289 292 302 303 TAVSDG
| target | fold induction |
| --- | --- |
| PhoP, residues 12 14 15 18 19 AYFRS (Escherichia coli, UniProt P23836) | 7.46 |
| PhoP, residues 12 14 15 18 19 SFCSL (Escherichia coli, UniProt P23836) | 7 |
| PhoP, residues 12 14 15 18 19 HHYTI (Escherichia coli, UniProt P23836) | 0.894 |

A few entries again (set 3):
| Variant | normalised enrichment score |
| --- | --- |
| G13Y | 0.172 |
| F12I | 0.202 |
| R2H | 0.126 |
| Y3N | 0.138 |
| D11V | 0.165 |
| Y3H | 0.159 |
